Assay results gathered from unrelated publications.
Each numbered part is a random draw from the data of one study; scales do not carry over between parts. Changes are numbered by the printed parent chain.
Chain of UniProt P62344 (whole entry, looked up): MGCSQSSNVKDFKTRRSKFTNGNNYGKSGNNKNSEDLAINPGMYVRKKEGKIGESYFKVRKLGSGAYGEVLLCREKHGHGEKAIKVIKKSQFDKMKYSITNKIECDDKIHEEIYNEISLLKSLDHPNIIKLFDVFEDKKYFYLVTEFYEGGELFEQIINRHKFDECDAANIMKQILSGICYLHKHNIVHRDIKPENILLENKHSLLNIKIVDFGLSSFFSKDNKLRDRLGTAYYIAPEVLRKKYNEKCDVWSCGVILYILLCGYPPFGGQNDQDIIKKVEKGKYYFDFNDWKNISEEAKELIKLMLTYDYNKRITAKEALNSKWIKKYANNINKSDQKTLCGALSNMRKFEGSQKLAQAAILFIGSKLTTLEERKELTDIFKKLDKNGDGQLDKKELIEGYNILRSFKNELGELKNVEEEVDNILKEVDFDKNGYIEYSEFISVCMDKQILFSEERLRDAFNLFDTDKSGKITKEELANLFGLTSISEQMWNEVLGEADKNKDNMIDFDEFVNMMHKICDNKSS

Study 1
Target: CCNE2, cyclin fold, Cln2 fusion (human)
Method: yeast growth competition, sequencing
Matrix: yeast
Notes: strong parent motif
Relative to: not given
Reading: higher = stronger binding
Starting sequence: viral docking peptide; YKVKRRLVFGADD
`YKVKRRYVFGADD [L7Y]` — result for “normalised enrichment score”: 0.375.
For `YKVKRGLVFGADD [R6G]`, “normalised enrichment score” read -0.179.
`YKVKRTLVFGADD [R6T]`: “normalised enrichment score” 1.97.
`YKVKRRLVFGTDD [A11T]` — result for “normalised enrichment score”: 6.16.

Other studies, line by line
CBF1 full length, N-terminal tag: Centromere-binding protein 1, full length, N-terminal tag (CBF1, Saccharomyces cerevisiae, UniProt P17106, residues 1-351)
Chain of UniProt P17106 (whole entry, looked up): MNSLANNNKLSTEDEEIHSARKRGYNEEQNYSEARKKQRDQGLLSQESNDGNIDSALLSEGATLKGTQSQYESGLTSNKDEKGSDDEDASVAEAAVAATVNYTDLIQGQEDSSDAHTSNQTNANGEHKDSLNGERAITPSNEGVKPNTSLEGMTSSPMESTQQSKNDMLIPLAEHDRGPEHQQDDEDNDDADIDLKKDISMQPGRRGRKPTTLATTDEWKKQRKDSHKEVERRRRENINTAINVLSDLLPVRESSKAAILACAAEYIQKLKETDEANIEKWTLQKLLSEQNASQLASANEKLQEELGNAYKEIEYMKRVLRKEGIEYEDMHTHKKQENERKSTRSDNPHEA
`CCTAACTACTATAGTCATGTTGTATAGCTTCGTACAGTCTTGATTCGCTTGACGCTGCTG` has a fluorescence intensity of 549 a.u. (CBF1 full length, N-terminal tag; protein-binding microarray; double-stranded DNA, one strand shown, in vitro; 0.8 µM, whole 60-bp probe, no competitor; higher = stronger binding).
For `NCC(CC(=O)O)c1ccc(Cl)cc1` (centres unmarked), the nuclei count was -0.191 z-score (mouse MPNST tumor cells; high-content nuclear imaging, item: cell number; 10 µM, 12 h, mean of 2 replicates; relative to: plate mean, higher = more cells).
With `C[C@H](c1cccc(C#N)c1)n1cc(Cl)cc(C(N)=O)c1=N` the remaining binding was 86% (CDPK1 (Plasmodium falciparum, UniProt P62344); cell-free assay, competition with immobilised ligand; 1 µM).
For `CTAGCTGACTAAAATAGTGTGACACAACGTACATTCGTCTTGATTCGCTTGACGCTGCTG`, the fluorescence intensity was 589 a.u. (CBF1 full length, N-terminal tag; protein-binding microarray; double-stranded DNA, one strand shown, in vitro; 0.8 µM, whole 60-bp probe, no competitor; higher = stronger binding).
